Experimental data from different studies.
Each line is one published result; not all experiments were run side by side.
Target: NAD-dependent protein deacetylase sirtuin-1 (SIRT1, Homo sapiens, UniProt Q96EB6)
Residues used in one study (Q96EB6 193-741): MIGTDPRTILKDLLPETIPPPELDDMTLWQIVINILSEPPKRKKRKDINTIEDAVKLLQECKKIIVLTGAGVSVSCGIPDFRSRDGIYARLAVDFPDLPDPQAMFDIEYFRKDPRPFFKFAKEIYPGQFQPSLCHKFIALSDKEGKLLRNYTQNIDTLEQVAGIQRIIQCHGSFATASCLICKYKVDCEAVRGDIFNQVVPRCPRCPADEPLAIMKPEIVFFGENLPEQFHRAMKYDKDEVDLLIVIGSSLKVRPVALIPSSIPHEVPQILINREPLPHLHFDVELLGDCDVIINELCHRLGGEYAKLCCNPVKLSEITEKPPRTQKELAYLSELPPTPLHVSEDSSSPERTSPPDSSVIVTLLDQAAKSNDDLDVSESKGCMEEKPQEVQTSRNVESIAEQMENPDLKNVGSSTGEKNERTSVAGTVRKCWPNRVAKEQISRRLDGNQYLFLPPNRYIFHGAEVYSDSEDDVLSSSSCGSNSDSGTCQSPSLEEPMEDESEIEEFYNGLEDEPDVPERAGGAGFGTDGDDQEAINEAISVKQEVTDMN

SMILES	observed	action	method	tested at	endpoint	result
CC(C)C(OC(=O)C(C)(C)C)n1nnnc1CCNC(=S)NCCCC[C@H](NS(=O)(=O)c1cccc(F)c1)C(=O)N[C@@H](Cc1c[nH]c2ccccc12)C(=O)NC1CCC1 (stereo partly drawn)	enzyme activity	inhibitor		1 µM	inhibition	76%
CCCCCCCCCCCCNC(=S)NCCCC[C@H](NC(=O)OCc1ccccc1)C(=O)N[C@H](C)C(=O)N[C@@H](CCCNC(=N)N)C(N)=O	enzyme activity	inhibitor		10 µM	inhibition	78%
O=C(O)CCNC(=S)NCCCC[C@H](NS(=O)(=O)c1cccc(F)c1)C(=O)N[C@@H](Cc1c[nH]c2ccccc12)C(=O)NC1CCC1	enzyme activity	inhibitor		10 µM	inhibition	10%
CCCCCCCCCCCCNC(=S)NCCCC[C@H](NC(=O)OCc1ccccc1)C(=O)NC(C)(C)C(=O)N[C@@H](CCCNC(=N)N)C(N)=O	enzyme activity	inhibitor		10 µM	inhibition	55%
CC1(C)CC[C@@]2(CO)C(=C3C=C[C@@H]4[C@@]5(C)CC[C@H](O)[C@@](C)(CO)[C@@H]5CC[C@@]4(C)[C@]3(C)C[C@@H]2O)C1	binding		microscale thermophoresis	40.3 nM	MST normalised fluorescence	910 a.u.
Cn1sc(Nc2c(Cl)ccc3ncccc23)c(C#N)c1=O	enzyme activity	inhibitor		10 µM	inhibition	10%
O=C(NC1CCC1)[C@H](Cc1c[nH]c2ccccc12)NC(=O)[C@H](CCCCNC(=S)NCCc1noc(=O)[nH]1)NS(=O)(=O)c1cccc(F)c1	enzyme activity	inhibitor		10 µM	inhibition	37%
CCCCCCCCCCCCNC(=S)NCCCC[C@H](NC(=O)OCc1ccccc1)C(=O)N[C@@H](CCCNC(=N)N)C(=O)N[C@@H](CCCNC(=N)N)C(N)=O	enzyme activity	inhibitor		1 µM	inhibition	81%
COc1ccc2nc(C)ccc2c1Nc1sn(C)c(=O)c1C#N	enzyme activity	inhibitor		10 µM	inhibition	7%

Some of these lines once more:
SMILES	observed	action	method	tested at	endpoint	result
Cn1sc(Nc2c(Cl)ccc3ncccc23)c(C#N)c1=O	enzyme activity	inhibitor		10 µM	inhibition	10%
